# Published values of several laboratories.
# Parts stem from different laboratories: compare values within a part only.

# Set 1 — technique: RNAcompete; molecule type: RNA; medium: in vitro; tested at: 20 nM; notes: 7-mer, probes averaged, single round; reference: mean of 7-mers; reading: higher = stronger binding
# Target: PABPC1L2, full length, GST fusion (mouse, UniProt A0ABA7IW68)
# Target sequence (chain): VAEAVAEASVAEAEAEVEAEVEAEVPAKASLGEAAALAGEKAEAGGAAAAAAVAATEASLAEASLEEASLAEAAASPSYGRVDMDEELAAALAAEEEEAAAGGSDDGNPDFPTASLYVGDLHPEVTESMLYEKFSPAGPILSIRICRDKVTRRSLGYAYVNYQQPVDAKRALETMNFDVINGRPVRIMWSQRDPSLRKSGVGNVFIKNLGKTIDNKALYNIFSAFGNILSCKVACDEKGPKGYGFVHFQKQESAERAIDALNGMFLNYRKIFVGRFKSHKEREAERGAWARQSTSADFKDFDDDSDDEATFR
Oligonucleotide,7-mer Z-score
ACAGUUC,-0.224
CCUUUCG,-0.45
GUGGUUA,-0.113
CGAGGUG,0.157
UUAGAGC,0.0406
GUUUUAG,-0.394

# Set 2 — technique: protein binding microarray; molecule type: double-stranded DNA, one strand shown; medium: in vitro; tested at: not given; reference: not given; reading: higher = stronger binding
# Target: Histone acetyltransferase KAT6A, both winged helices, GST fusion (KAT6A, Homo sapiens, UniProt Q92794, residues 1-181)
# Notes: 8-mer, flanks averaged, mean of 2 arrays, mostly near background
# Target sequence (chain): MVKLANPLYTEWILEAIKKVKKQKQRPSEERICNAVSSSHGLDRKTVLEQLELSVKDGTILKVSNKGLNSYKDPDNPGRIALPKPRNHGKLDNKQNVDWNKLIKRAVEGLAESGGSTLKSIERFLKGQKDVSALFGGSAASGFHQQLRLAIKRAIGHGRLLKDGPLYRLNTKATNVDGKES
Oligonucleotide,E-score
AGATTGCG,0.17
CTCCAAGA,-0.207
CCGTCCGA,0.189
ACCTGCCT,-0.217
CTTAGAGA,-0.217
GATGCAAA,-0.146

# Set 3 — technique: universal PBM; molecule type: double-stranded DNA, one strand shown; medium: in vitro; tested at: not given; reading: higher = stronger binding
# Target: Sal-like protein 4, full length isoform B (SALL4, Homo sapiens, UniProt Q9UJQ4-2, residues 1-616)
# Notes: 8-mer, flanks averaged, mean of replicates
# Construct (chain): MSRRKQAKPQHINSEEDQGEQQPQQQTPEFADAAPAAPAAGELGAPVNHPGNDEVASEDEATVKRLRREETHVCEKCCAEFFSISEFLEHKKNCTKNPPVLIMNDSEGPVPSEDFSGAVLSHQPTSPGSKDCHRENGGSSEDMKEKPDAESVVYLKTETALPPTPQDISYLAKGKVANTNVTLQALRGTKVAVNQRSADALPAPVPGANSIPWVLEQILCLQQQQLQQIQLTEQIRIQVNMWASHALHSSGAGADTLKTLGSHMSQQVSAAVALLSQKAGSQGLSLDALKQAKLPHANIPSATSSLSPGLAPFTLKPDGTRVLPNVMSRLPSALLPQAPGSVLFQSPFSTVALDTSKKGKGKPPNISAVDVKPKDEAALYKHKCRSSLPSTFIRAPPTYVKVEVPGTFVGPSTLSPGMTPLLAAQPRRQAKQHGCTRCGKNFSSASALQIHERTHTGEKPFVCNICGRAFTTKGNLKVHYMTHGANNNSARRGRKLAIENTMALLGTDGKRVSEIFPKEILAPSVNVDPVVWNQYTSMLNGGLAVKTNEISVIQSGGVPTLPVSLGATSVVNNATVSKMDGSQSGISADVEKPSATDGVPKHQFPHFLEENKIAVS
Oligonucleotide,E-score
GCTCGATA,-0.0527
CTATGACA,0.122
GTAATCCA,0.188
CTGACGGA,-0.0385
AGAATCGC,-0.0204
AGGATGAA,0.051
CCTTGTGC,-0.135

# Other studies, line by line
Substance,target,assay,system,conditions,scale,quantity,value
"PhoQ, residues 284 288 289 292 302 303 HSYLQF","PhoP, residues 12 14 15 18 19 YHFSH (Escherichia coli, UniProt P23836)","Sort-seq, item: YFP reporter",E. coli,"PhoQ-PhoP variant library, with: 10 µM Mg2+","reference: high Mg2+ state, higher = stronger signaling",fold induction,13.1

# A few entries again (set 3):
Oligonucleotide,E-score
CTGACGGA,-0.0385
AGAATCGC,-0.0204
